Measurements of several laboratories.
Compare with care: the assays were run in different laboratories. “And” joins repeats or separate records; there may be more than shown. ± marks the error that the study gave.
DDB1: DNA damage-binding protein 1 (DDB1, Homo sapiens, UniProt Q16531)
TOP2A: DNA topoisomerase 2-alpha (TOP2A, Homo sapiens, UniProt P11388)
UniProt P11388, sequence (whole entry, looked up): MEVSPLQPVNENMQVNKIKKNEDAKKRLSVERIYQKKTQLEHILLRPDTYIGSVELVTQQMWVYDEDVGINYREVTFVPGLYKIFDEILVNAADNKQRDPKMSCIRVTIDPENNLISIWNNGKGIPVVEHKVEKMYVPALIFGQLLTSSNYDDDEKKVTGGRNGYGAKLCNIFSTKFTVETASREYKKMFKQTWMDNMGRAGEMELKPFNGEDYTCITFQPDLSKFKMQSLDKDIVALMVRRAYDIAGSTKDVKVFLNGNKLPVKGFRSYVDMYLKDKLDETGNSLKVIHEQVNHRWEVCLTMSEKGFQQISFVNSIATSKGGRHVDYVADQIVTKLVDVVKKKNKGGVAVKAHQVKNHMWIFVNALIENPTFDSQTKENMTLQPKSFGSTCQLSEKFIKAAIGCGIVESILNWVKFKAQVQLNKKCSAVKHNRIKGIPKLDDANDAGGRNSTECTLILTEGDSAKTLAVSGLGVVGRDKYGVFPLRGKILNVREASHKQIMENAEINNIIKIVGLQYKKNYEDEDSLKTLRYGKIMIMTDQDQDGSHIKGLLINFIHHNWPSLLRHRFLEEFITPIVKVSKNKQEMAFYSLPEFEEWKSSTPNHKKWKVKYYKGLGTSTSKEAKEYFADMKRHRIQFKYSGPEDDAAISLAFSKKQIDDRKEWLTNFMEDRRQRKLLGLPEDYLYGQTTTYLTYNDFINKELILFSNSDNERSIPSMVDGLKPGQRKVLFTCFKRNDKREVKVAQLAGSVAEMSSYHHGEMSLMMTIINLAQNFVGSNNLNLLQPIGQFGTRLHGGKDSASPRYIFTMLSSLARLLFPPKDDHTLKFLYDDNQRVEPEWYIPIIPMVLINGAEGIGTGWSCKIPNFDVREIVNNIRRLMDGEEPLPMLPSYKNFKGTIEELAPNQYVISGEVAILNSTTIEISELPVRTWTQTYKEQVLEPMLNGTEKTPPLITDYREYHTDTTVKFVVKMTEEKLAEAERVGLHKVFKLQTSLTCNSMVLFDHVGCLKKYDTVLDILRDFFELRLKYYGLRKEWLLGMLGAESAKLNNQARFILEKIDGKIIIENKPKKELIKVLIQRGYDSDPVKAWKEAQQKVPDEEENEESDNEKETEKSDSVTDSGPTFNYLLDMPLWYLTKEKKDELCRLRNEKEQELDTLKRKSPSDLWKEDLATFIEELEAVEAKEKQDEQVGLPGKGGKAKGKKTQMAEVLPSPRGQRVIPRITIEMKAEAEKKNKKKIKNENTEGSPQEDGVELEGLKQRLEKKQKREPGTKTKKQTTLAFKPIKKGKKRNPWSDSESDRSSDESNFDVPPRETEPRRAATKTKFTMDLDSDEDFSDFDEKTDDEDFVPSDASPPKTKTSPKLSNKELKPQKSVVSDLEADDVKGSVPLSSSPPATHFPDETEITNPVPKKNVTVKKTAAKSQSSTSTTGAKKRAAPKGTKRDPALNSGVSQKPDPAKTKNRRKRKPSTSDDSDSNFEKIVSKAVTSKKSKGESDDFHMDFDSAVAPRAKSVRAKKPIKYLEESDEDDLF
Cereblon/Ikaros: Cereblon/Ikaros (Homo sapiens, UniProt Q13422+Q96SW2)
BEST2: Bestrophin-2a (BEST2, Homo sapiens, UniProt Q8NFU1)
UniProt O76090, sequence (whole entry, looked up): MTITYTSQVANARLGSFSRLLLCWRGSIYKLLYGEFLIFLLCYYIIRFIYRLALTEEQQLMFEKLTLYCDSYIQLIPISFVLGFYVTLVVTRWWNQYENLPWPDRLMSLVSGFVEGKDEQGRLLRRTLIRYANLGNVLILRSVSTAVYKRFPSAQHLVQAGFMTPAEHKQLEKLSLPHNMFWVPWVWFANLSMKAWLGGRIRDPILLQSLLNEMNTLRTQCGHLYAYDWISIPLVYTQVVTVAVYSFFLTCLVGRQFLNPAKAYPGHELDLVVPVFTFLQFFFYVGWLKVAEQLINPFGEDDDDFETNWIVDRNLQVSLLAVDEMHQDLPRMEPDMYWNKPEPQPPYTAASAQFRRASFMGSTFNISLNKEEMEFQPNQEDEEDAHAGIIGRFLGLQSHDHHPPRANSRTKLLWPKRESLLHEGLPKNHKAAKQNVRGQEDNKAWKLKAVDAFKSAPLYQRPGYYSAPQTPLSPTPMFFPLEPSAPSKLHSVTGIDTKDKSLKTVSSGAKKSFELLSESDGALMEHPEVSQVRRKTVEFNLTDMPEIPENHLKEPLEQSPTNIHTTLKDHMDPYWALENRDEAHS
UniProt P53621, sequence (whole entry, looked up): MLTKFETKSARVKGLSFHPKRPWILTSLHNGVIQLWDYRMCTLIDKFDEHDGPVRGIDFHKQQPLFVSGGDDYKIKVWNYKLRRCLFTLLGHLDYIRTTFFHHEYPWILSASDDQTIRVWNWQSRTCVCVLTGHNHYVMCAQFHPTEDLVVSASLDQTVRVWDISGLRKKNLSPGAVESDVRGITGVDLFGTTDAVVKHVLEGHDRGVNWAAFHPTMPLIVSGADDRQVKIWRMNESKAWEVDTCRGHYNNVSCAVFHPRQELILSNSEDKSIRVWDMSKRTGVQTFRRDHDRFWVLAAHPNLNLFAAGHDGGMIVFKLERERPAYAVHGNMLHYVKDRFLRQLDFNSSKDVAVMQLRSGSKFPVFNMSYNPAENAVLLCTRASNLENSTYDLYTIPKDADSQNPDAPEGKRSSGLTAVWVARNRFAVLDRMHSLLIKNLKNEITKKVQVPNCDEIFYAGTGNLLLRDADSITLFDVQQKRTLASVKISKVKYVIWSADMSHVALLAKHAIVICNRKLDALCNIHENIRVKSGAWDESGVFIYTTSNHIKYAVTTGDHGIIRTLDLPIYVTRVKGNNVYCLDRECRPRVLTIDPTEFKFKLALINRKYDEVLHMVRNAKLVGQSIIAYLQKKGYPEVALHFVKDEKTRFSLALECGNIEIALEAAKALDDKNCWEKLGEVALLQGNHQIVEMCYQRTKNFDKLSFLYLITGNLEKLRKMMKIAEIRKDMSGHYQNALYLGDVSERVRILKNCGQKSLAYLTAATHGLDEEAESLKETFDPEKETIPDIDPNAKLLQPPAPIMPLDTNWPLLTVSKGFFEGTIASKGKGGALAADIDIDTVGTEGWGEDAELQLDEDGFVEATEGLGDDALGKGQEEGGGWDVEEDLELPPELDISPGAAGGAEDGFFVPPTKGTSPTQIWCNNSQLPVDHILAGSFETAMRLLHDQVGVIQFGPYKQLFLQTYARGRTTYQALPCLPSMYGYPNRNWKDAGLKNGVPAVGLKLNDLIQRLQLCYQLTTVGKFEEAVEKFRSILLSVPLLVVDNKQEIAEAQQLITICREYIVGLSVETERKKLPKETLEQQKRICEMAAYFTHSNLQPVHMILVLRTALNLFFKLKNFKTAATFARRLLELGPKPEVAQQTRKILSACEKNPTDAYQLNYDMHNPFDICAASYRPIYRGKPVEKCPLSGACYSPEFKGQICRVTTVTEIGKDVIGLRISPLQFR
UniProt Q8NFU1, sequence (whole entry, looked up): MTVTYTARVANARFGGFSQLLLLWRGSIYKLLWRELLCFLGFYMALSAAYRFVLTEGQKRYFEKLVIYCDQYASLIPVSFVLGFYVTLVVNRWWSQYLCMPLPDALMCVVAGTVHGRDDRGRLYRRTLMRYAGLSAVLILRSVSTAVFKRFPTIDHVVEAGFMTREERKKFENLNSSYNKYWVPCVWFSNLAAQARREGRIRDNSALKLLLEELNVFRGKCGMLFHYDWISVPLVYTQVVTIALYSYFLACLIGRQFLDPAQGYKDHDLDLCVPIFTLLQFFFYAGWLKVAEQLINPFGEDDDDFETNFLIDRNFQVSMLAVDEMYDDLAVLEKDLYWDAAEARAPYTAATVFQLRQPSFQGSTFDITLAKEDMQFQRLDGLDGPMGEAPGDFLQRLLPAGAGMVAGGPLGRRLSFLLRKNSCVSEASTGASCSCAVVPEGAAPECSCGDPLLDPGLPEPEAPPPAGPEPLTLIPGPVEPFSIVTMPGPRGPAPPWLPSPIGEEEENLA
UniProt Q9EP73, sequence (whole entry, looked up): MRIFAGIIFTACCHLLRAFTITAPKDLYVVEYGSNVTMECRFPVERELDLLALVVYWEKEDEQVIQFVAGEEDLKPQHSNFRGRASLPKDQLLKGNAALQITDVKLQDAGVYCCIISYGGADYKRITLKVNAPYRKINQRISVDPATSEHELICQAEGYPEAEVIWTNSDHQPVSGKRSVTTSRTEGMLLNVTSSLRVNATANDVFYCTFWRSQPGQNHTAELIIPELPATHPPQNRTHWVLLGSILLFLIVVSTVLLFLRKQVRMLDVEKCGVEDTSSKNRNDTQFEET
UniProt Q8IVV7, sequence (whole entry, looked up): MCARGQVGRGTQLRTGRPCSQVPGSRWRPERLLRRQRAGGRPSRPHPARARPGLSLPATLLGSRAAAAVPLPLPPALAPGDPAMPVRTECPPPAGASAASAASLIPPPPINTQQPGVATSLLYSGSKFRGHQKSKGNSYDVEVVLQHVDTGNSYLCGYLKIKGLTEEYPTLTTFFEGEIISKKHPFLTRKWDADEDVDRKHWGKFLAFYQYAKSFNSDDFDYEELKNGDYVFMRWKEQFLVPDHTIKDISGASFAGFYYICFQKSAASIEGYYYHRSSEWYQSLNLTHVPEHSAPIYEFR
UniProt Q16774, sequence (whole entry, looked up): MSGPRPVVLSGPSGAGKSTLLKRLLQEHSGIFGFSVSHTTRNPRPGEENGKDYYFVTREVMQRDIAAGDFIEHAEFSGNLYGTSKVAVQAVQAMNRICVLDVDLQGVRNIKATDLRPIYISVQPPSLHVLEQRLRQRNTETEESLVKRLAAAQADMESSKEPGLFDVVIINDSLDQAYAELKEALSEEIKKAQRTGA
UniProt P51575, sequence (whole entry, unmodified, looked up): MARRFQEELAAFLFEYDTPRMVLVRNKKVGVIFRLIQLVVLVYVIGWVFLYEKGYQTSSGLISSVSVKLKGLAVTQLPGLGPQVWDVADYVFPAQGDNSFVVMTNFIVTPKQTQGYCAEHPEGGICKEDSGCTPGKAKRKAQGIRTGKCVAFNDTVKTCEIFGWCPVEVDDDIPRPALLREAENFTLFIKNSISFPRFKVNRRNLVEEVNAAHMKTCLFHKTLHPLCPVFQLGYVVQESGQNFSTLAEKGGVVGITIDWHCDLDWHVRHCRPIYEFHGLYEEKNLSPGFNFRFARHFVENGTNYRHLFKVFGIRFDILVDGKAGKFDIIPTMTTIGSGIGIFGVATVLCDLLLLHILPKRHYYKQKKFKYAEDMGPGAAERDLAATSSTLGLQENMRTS

The remaining activity of `O=C(O)c1ccc(Nc2ncc3c(n2)-c2ccc(Cl)cc2C(c2c(F)cccc2F)=NC3)cc1` is reported as 92% (BrSK1(h); kinase activity; 1 µM).
With `NC(=O)C1CCN(C(=O)c2ccc(NCc3cnc4nc(N)nc(N)c4n3)cc2)CC1` the partition index was 0.87 (Pteridine reductase 1 (Leishmania major, UniProt Q01782); hDHFR weight 10; relative to: LmPTR1, LmDHFR over hDHFR, 1.0 selective, 0.0 non-selective).
`Nc1ncnc2c1ncn2[C@@H]1O[C@H](COP(=O)(O)CP(=O)(O)OP(=O)(O)O)[C@@H](O)[C@H]1O` gave a calcium influx of 72.1% and 52.2% (P2X purinoceptor 1 (P2RX1, Homo sapiens, UniProt P51575, K215A); calcium influx; 100 nM; relative to: ionomycin response).
`c1ccc(CCCCCOCCc2ccc3[nH]cc(C4CCCCC4)c3c2)cc1` has an Emax of 19 to 25% (ATP2A2 (Sus scrofa, UniProt P11607); ATPase Vmax increase, activator; pig microsomes; 0.1 to 50 µM; relative to: vehicle).
`CC(Oc1ccccc1)C(=O)NCc1ccccn1` (stereo not drawn): “log fold enrichment” 0.194 (DDB1; binding, affinity selection mass spectrometry; relative to: other proteins in batch).
For `CC(=O)Nc1ccc(O)cc1`, “chemical shift change” read -0.01 ppm (BRD4 (Homo sapiens, UniProt O60885); 19F NMR, measured: tyrosine 65; 48 µM; relative to: free protein).
The decatenated DNA of `Cc1nc(CSc2nc(SCc3cc(F)cc(C(F)(F)F)c3)nc(=O)[nH]2)cs1` is reported as 90.9% (TOP2A; decatenation; 7.8 µM, replicate 2).
The SPR response of `CCOc1cccc(C2CC(=O)Nc3c2c(C)nn3-c2ccc3nncn3n2)c1` (stereo not drawn) is reported as 8.41 RU (DDB1; binding, surface plasmon resonance; 15 µM).
For `CCC(CC)(NCCc1ccc(C(F)(F)F)c(Cl)c1)c1cccc(NC2=CC(=O)N(C3CCC(=O)NC3=O)C2=O)c1` (stereo not drawn), the Dmax was 70% (Cereblon/Ikaros; protein degradation, degrader, HiBiT luminescence; Jurkat).
`CCCCC[C@H](O)/C=C/[C@H]1[C@H](O)CC(=O)[C@@H]1C/C=C\CCCC(=O)O` gave an Emax of 33 ± 6.99% (PTGER1 (Homo sapiens, UniProt P34995, W310A); IP1 accumulation, agonist; AD293; 1 h, EP1 W310A mutant).
For `O=c1c(OS(=O)(=O)[O-])c(-c2ccc(OS(=O)(=O)[O-])c(OS(=O)(=O)[O-])c2)oc2cc(OS(=O)(=O)[O-])cc(OCCOc3cc(-c4oc5cc(OS(=O)(=O)[O-])cc(OCCOc6cc(OS(=O)(=O)[O-])cc7oc(-c8ccc(OS(=O)(=O)[O-])c(OS(=O)(=O)[O-])c8)c(OS(=O)(=O)[O-])c(=O)c67)c5c(=O)c4OS(=O)(=O)[O-])ccc3OS(=O)(=O)[O-])c12.[Na+].[Na+].[Na+].[Na+].[Na+].[Na+].[Na+].[Na+].[Na+].[Na+].[Na+]`, the Hill slope was 2.4 (Neutrophil elastase (ELANE, Homo sapiens, UniProt P08246); enzyme activity, inhibitor; together with: chromogenic substrate).
`Nc1ccc(C(=O)O)cc1` gave a current density of -54.4 pA/pF and -112 pA/pF and -99.2 pA/pF and -55.2 pA/pF and -84.9 pA/pF and -59.7 pA/pF and -74.2 pA/pF (BEST1 (Homo sapiens, UniProt O76090); whole-cell patch clamp; HEK293 transiently expressing channel; concentration not given, membrane potential -100 mV).
`COc1nc(-c2cccc(-c3ccccc3)c2C)ccc1CNCCCCCCCCCCC(=O)N(C)CCCC12CCC(c3ccccc31)c1ccccc12` gave a degradation of 31.5 ± 1.9% (CD274 (Homo sapiens, UniProt Q9NZQ7); degrader, western blot; HL-60; 1 µM).
For `O=C(COP(=O)(O)O)[C@@H](O)[C@H](O)[C@H](O)COP(=O)(O)O`, “thermal stability ratio” read 0.556 and 0.533 and 0.545 (Coatomer subunit alpha (Homo sapiens, UniProt P53621); thermal proteome profiling, measured: COPA; HepG2 cell lysate; concentration not given, 57 over 37 °C; relative to: compound over control).
For `[Zn+2]`, the remaining current was 0.179 (Otop1 (Mus musculus, UniProt Q80VM9); acid-evoked current, inhibitor, whole-cell patch-clamp; HEK293T; 1 mM, pH 5.5, unit not given; relative to: current before compound).
For `CC(C)c1cccc2c(/C=C/c3ccccc3)cc(-c3ccc(-c4ccc(C(=O)O)cc4)[nH]3)nc12`, the selectivity ratio was roughly 4 fold (RARB (Homo sapiens, UniProt P10826); reporter gene, antagonist; relative to: IC50 RARα over IC50 RARB).
`NC/C(=C\F)COc1cccc(Cn2c(=S)[nH]c(=O)c3[nH]cnc32)c1` — result for “LDL lipid peroxidation”: 32.1% and 28.5% and 24.6% (Myeloperoxidase (MPO, Homo sapiens, UniProt P05164); inhibitor, cholesteryl ester hydroperoxide; 0.0556 µM; relative to: control).
The potency reduction of `CC(C)N(CCC(=O)c1ccc2ccccc2c1)Cc1ccccc1` is reported as roughly 300 fold (TGM2 (Homo sapiens, UniProt P21980); enzyme activity, inhibitor; concentration not given, together with: DTT; relative to: without DTT over with DTT).
For `CN1CCN(c2cc(-c3ccncc3)c(-c3ccc4ccccc4c3)nn2)CC1`, the activation was -1.1% (PTGER2 (Homo sapiens, UniProt P43116); agonist, FLIPR; 12.5 µM).
With `COc1ncc(CNc2c(CO)cnc3c(C4CC4)cc(C#N)cc23)cc1Cl` the selectivity ratio was greater than 10 (PDE2A (Homo sapiens, UniProt O00408); relative to: IC50 PDE2A over PDE5).
The activation of `CCCCCCCC(=O)c1cc(OC)c(OC)c(OC)c1CC(=O)OCC` is reported as 0.62 fold (Bile acid receptor (NR1H4, Homo sapiens, UniProt Q96RI1); reporter gene, Gal4 hybrid reporter; 10 µM; relative to: vehicle).
`CC1=C(Nc2cccc(C3(NCCc4ccc(C(F)(F)F)c(Cl)c4)CCC3)c2)C(=O)N(C2CCC(=O)NC2=O)C1=O` (stereo not drawn) has a Dmax of 53% (Cereblon/Ikaros; protein degradation, degrader, HiBiT luminescence; Jurkat).
Under “normalised MST signal”, `NCCCCC(=O)O` is recorded as -0.0175 (SLC6A6 (Homo sapiens, UniProt P31641, G62A); binding, microscale thermophoresis; 488 nM, room temperature, together with: 50 nM labelled protein; higher = more binding).
`CC(=C/C(=O)O)/C=C/C=C(\C)C1C=C2C(C)(C)CCCC2(C)O1` (stereo not drawn): “Pearson correlation coefficient” 0.67 (Rhodopsin (RHO, Homo sapiens, UniProt P08100, T17M); ER retention, immunostaining co-localization, measured: opsin with calnexin; COS-7 transfected T17M; 5.00 µM).
`CC1(C)CC2(C)OC(=O)NC2(C)c2ccccc21` (stereo not drawn): “log fold enrichment” -0.146 (Histone-lysine N-methyltransferase SETDB1, triple tudor domain (SETDB1, Homo sapiens, UniProt Q15047); binding, affinity selection mass spectrometry; relative to: other proteins in batch).
For `c1coc(-c2n[nH]cc2-c2ccnc3ccccc23)c1`, “log2 fold change” read -0.23 (Casein kinase I HRR25 (Candida albicans, UniProt Q59S64); kinase binding, MIB/MS competition; Candida albicans lysate; 1 µM; relative to: DMSO, negative = stronger binding).
With `COc1cc(N2CCC(N3CCN(C)CC3)CC2)ccc1Nc1ncc(Cl)c(Nc2ccccc2P(C)(C)=O)n1` the NanoBRET ratio was 0.895 and 1.11 and 0.919 (GID4/ALK (Homo sapiens, UniProt Q8IVV7+Q9UM73); ternary complex formation; HEK293T; 500 nM, 6 h; relative to: normalised ratio).
`Cc1nc(CSc2nc(SCc3ccc(C(C)C)cc3)nc(=O)[nH]2)cs1` has a linear DNA of 1.73% (TOP2A; DNA cleavage; 125 µM, replicate 1).
For `NS(=O)(=O)C(F)(F)F`, “intrinsic binding TΔS” read 5.02 kcal/mol (CA4 (Homo sapiens, UniProt P22748); ITC; concentration not given, 25 °C).
With `Nc1ncnc2c1ncn2[C@@H]1O[C@H](COP(=O)(O)OP(=O)(O)OP(=O)(O)O)[C@@H](O)[C@H]1O` the kcat was 57 ± 7 s⁻¹ (Hexokinase-3 (HK3, Homo sapiens, UniProt P52790, E254A/R267A); substrate; mutant E254A/R267A, together with: glucose 0.5 mM).
For `C[C@@H]1C[C@H](Nc2ccccc2)c2cc(F)ccc2N1C(=O)c1ccc(C(F)(F)F)nc1`, the pIC50 Z-score was 0.14 (Ecdysone receptor (Aedes albopictus, UniProt Q9U3Y4); ligand binding, inhibitor; intact cells; together with: [3H]ponasterone A; direction not given).
The selectivity ratio of `O=C(CCCCc1ccc(CO)cc1)C(F)(F)C(F)(F)F` is reported as 362 (PLA2G6 (Homo sapiens, UniProt O60733); PLA2 activity; relative to: IC50 GV sPLA2 over IC50 PLA2G6).
`O=c1nc(SCc2cc(F)cc(C(F)(F)F)c2)nc(SCc2ccc3ncsc3c2)[nH]1` has a decatenated DNA of 100% (TOP2A; decatenation; 15.6 µM, replicate 1).
For `Cc1cc(Nc2cc(N3CCN(C)CC3)nc(Sc3ccc(NC(=O)C4CC4)cc3)n2)[nH]n1`, the remaining activity was 89% (PIM1 (Homo sapiens, UniProt P11309); kinase activity, KinaseProfiler; 0.03 µM, species human; relative to: control).
For `Cc1c(COc2ccc(CN3CCCCC3C(=O)O)cc2Br)cccc1-c1ccccc1` (stereo not drawn), the protein level was 0.982 and 0.762 and 0.962 (Cd274 (Mus musculus, UniProt Q9EP73); western blot; mouse B16-F10 tumour, tumour; intravenous, dose not given, unit not given; relative to: control).
For `O=c1nc(SCc2cc(F)cc(C(F)(F)F)c2)nc(SCc2cccc(C(F)(F)F)c2)[nH]1`, the decatenated DNA was 32.6% (TOP2A; decatenation; 15.6 µM, replicate 2).
The reaction velocity of `Nc1nc2c(ncn2[C@@H]2O[C@H](COP(=O)(O)O)[C@@H](O)[C@H]2O)c(=O)[nH]1` is reported as 0.118 µM/s and 0.116 µM/s and 0.115 µM/s (GUK1 (Homo sapiens, UniProt Q16774); enzyme activity, NADH-coupled; 1000 µM, together with: KCl 50 mM).
With `O=C(O)c1ccc(O)cc1` the current density was 78.4 pA/pF and 62.2 pA/pF and 43.1 pA/pF and 49.8 pA/pF and 106 pA/pF and 89.2 pA/pF and 80.1 pA/pF (BEST2; whole-cell patch clamp; HEK293 transiently expressing channel; concentration not given, membrane potential 40 mV).
Under “mean relaxed DNA”, `O=c1nc(SCc2cc(F)cc(C(F)(F)F)c2)nc(SCc2ccc3sccc3c2)[nH]1` is recorded as 0.6% (TOP2A; DNA relaxation; 62.5 µM).
For `O=C(O)c1ccc([N+](=O)[O-])cc1`, the current density was 91.5 pA/pF and 330 pA/pF and 406 pA/pF and 290 pA/pF and 361 pA/pF (BEST2; whole-cell patch clamp; HEK293 transiently expressing channel; concentration not given, membrane potential 100 mV).
`O=c1nc(SCc2ccc(C(F)(F)F)cc2)nc(SCc2ccc3sccc3c2)[nH]1` has a decatenated DNA of 100% (TOP2A; decatenation; 7.8 µM, replicate 2).
For `Clc1ccc(Cn2nc(-c3nc(-c4ccccc4)no3)c3ccccc32)c(Cl)c1`, enzyme activity read “increased” (Hexokinase-2 (HK2, Homo sapiens, UniProt P52789); ADP-Glo; 100 µM, 40 min; relative to: DMSO).
